Measured values pooled from the literature.
Parts stem from different laboratories: compare values within a part only.

Series 1
Target: Sal-like protein 4, full length isoform B (SALL4, Homo sapiens, UniProt Q9UJQ4-2, residues 1-616)
Method: universal PBM
Molecule type: double-stranded DNA, one strand shown
Sample: in vitro
Concentration: not given
Notes: 8-mer, flanks averaged, mean of replicates
Reading: higher = stronger binding
Target sequence (chain): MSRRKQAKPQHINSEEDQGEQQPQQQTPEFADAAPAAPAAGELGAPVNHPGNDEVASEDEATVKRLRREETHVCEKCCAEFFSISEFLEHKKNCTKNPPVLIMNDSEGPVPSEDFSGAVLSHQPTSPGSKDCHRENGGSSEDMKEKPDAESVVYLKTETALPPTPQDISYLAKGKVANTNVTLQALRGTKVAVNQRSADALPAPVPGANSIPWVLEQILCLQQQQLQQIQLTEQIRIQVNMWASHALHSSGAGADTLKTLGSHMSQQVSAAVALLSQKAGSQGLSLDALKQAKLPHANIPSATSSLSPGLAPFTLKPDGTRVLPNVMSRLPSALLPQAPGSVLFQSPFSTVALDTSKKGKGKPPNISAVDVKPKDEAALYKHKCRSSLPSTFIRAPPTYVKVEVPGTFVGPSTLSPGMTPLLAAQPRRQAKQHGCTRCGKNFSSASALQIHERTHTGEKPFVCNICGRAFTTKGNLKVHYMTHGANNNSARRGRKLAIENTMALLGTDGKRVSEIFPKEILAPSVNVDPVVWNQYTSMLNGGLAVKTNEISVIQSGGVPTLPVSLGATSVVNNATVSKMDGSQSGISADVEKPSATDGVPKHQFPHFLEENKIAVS
With `CGGAATGC` the E-score was -0.222.
For `AAGAAGAA`, the E-score was 0.149.
`CGAGGGGC` has an E-score of -0.344.
`TCACCTAA` gave an E-score of 0.0117.
The E-score of `CGTCCTGA` is reported as -0.151.
The E-score of `ACAAGGAC` is reported as -0.179.
`GGCAGGCA` has an E-score of -0.18.
`AAAGCAGG` gave an E-score of -0.0377.
With `GTACCCGA` the E-score was -0.17.
With `ATATTACC` the E-score was 0.339.
With `AGGCCATA` the E-score was -0.0505.
With `CTAGTCAA` the E-score was 0.0191.
`CATCTACA` gave an E-score of 0.158.
`GACCCGCA` has an E-score of -0.165.
`CCGCTATA` gave an E-score of 0.19.
`AGTCTTTA` gave an E-score of 0.0675.
The E-score of `ACAGTGGC` is reported as -0.165.
For `CCTAAGAG`, the E-score was -0.134.
`ACTTAGTA` gave an E-score of 0.189.
For `CCCGGGTA`, the E-score was -0.313.
`AAACAACA` gave an E-score of 0.111.
`CACTGAGC` has an E-score of -0.184.
`CCCCACCC` gave an E-score of -0.0611.
`CCTAAACG` gave an E-score of -0.11.
For `AGTCGAAA`, the E-score was -0.0811.

Series 2
Target: Centromere-binding protein 1, full length, N-terminal tag (CBF1, Saccharomyces cerevisiae, UniProt P17106, residues 1-351)
UniProt P17106, sequence (whole entry, looked up): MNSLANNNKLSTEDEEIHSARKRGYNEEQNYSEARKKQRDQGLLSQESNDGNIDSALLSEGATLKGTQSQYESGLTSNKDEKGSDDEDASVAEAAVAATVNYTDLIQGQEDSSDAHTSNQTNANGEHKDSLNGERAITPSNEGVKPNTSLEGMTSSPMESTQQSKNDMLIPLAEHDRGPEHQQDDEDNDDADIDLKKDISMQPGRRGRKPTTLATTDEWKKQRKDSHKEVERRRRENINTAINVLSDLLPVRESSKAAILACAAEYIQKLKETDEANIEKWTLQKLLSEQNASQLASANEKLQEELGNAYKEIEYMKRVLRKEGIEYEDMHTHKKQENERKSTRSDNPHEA
Method: protein-binding microarray
Molecule type: double-stranded DNA, one strand shown
Sample: in vitro
Concentration: 0.8 µM
Notes: whole 60-bp probe, no competitor
Reading: higher = stronger binding
All sequences stand within: … GTCTTGATTCGCTTGACGCTGCTG
`TGTACGAAGCTATATCAGCAGATTATAGTAGTTAGG` has a fluorescence intensity of 512 a.u.
`GAACATTTCGATTTGAGCGTGTTCTAGCTGTTCTAG` gave a fluorescence intensity of 497 a.u.
The fluorescence intensity of `CTAAAATAAAATTGTCACATCTGATAATTATACTTC` is reported as 560 a.u.
The fluorescence intensity of `CCTAACTACTATAGTCACGTGCCATAGCTTCGTACA` is reported as 26400 a.u.
`GAATCACATGAGAATCACGTGAATTTTCAGATATAG` gave a fluorescence intensity of 11200 a.u.
`GAAAACTTATACTGCCGCACGCCAAACATTGCATAG` gave a fluorescence intensity of 488 a.u.
For `CTATACACTTCCAAGTACCTGATGTGTGCTTGCTTC`, the fluorescence intensity was 484 a.u.
`GAAGTCATGTGATTTTTTGTCACGTTTTGTTGATAG` has a fluorescence intensity of 11800 a.u.
The fluorescence intensity of `CCTAACTACTATATGCAGGTGGCATAGCTTCGTACA` is reported as 518 a.u.
`CTAGATTTACATAATCAGGAGAGTCTATATATATTC` has a fluorescence intensity of 537 a.u.
The fluorescence intensity of `GAACTGAAGTCCTGGTACGCCACCTGGCACTTCTAG` is reported as 507 a.u.
For `GAAAGTTCTCTGTGGCACGTCGTGAAAGAATGCTAG`, the fluorescence intensity was 532 a.u.
`GAACCATGGAATTACCTCACGTTGTTCACATTATAG` gave a fluorescence intensity of 638 a.u.
The fluorescence intensity of `GAACTGTCAAGGTTCCTCGTGACTTTGACGAATTAG` is reported as 1840 a.u.
For `GAATCTCTAAAAGGGAGCGTGATAGATAAAGCATAG`, the fluorescence intensity was 977 a.u.
For `GAATGCGATACTTATCACGTACTTTGTATACATTAG`, the fluorescence intensity was 634 a.u.
`CTAAAAGAAGTATATCACGCTACAAAAATTCATTTC` has a fluorescence intensity of 804 a.u.
`GAAACTATGCGTTCCTTCGTGATCAGGATCCCTTAG` gave a fluorescence intensity of 612 a.u.
`GAAAGAATACCAGATCACCTGTTTGGATATATATAG` has a fluorescence intensity of 1820 a.u.

Series 3
Target: Probable WRKY transcription factor 33, N-terminal DNA-binding domain (WRKY33, Arabidopsis thaliana, UniProt Q8S8P5, residues 169-264)
Method: DNA-protein interaction ELISA
Molecule type: double-stranded DNA, one strand shown
Sample: in vitro, bacterial lysate
Concentration: not given
Notes: whole dsDNA probe, crude lysate protein
Baseline: highest signal in screen
Reading: higher = stronger binding
Residues (chain): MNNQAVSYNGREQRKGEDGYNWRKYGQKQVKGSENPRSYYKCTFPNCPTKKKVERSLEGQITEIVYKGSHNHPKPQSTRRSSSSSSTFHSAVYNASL
`AAAAAATCTTCTTGTTTCTTATTTCTAAAA` has a relative absorbance of 25.9 % of maximum.
With `AAAAAAAAGCTTCGGAGTCTTGAGAAAAAA` the relative absorbance was 25 % of maximum.
`AAAAAATTCTTTTTTCTTCAAGGTCTAAAA` gave a relative absorbance of 29.9 % of maximum.
The relative absorbance of `AAAAAATGTCCATCTTGCGTCTGTATAAAA` is reported as 13.5 % of maximum.
With `AAAAAACCTTACCTCATCCCTATCCCAAAA` the relative absorbance was 21.8 % of maximum.
With `AAAAAAGCCGTGGGTGATGGTCACAGAAAA` the relative absorbance was 19.7 % of maximum.
`AAAAAATGGAAAGACCTATACCGGTCAAAA` has a relative absorbance of 26.4 % of maximum.
With `AAAAAAGTGCACGACCCATTTATATAAAAA` the relative absorbance was 26.5 % of maximum.
With `AAAAAAATGCGCCCTTTCTGACATAAAAAA` the relative absorbance was 15.4 % of maximum.
For `AAAAAAAAATTTCGAGCCTCGGCGTAAAAA`, the relative absorbance was 14.6 % of maximum.
`AAAAAAATGATTTGCAGATCTCCGAGAAAA` gave a relative absorbance of 13.6 % of maximum.
`AAAAAACGGGATTCGAAACTTTTTGTAAAA` has a relative absorbance of 19.7 % of maximum.
`AAAAAACTACCTCTACTCTAGCCTTAAAAA` has a relative absorbance of 17.5 % of maximum.
`AAAAAACTTCTAGTTTATGCTTCCGTAAAA` has a relative absorbance of 23.5 % of maximum.
For `AAAAAATCCCCCCGTTTCACTCTTGCAAAA`, the relative absorbance was 24.8 % of maximum.
With `AAAAAATGCCCTTTTTATCTTTATGTAAAA` the relative absorbance was 26.9 % of maximum.
`AAAAAAGACCGCAGCAAGAATTAAATAAAA` has a relative absorbance of 25.8 % of maximum.
With `AAAAAACTACAACCTGCGCGGTGGTCAAAA` the relative absorbance was 22.6 % of maximum.
`AAAAAAGGCGGTCGTAGTTGTGGGAGAAAA` has a relative absorbance of 22.4 % of maximum.
`AAAAAATTGCCGTCATAATTGTGGTAAAAA` has a relative absorbance of 22 % of maximum.
`AAAAAATTGCACCTGATACTAGGGTTAAAA` has a relative absorbance of 35.4 % of maximum.

Series 4
Target: RNA binding protein fox-1 homolog 2, RRM domain, GST-SBP tag (RBFOX2, Homo sapiens, UniProt O43251-10, residues 100-194)
Method: RNA Bind-n-Seq
Molecule type: RNA
Sample: in vitro
Concentration: 365 nM
Notes: natural RNA segment, single round, ends assumed
Baseline: no-protein control
Reading: higher = stronger binding
All sequences stand within: GGGAGUUCUACAGUCCGACGAUC … UGGAAUUCUCGGGUGCCAA
Target sequence (chain): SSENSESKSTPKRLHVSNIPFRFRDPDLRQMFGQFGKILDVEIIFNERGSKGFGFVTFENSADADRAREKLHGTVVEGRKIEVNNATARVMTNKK
For `CAAGAAAAGGUUUUAAGCCUACUGGAUGGAGUCUAAAAUUCUUAGAAAUCAACUUUAGAGCUUUGCUUUUCUCUGAGUUCAUCCUGCAGUGAAUGACAGGUACUGACAGC`, “RBNS enrichment (R)” read 0.394.
Under “RBNS enrichment (R)”, `UGAGGUACUUGCUAGGGCGGAUCCUCACCGGAAGUUCGGAGCCAGAGGCUGCUCCUGCCCCGCGCCGCCUCCGCCGAUCUGUGGACCAGGAUUUGGGUCCCGAGGUGCCC` is recorded as 0.225.
Under “RBNS enrichment (R)”, `GGUGUGAUCGUCUCCUCAGUGAGCGGCGGCUCCCACUGCGCUGUGGGUAGUGUGUGACUGUGGCUGUACUGUAUAGUGAACAUAGUUGGCAUAUCUUUGUUUGAAGUUUG` is recorded as 0.837.
`GCUGGUGCCUAGCCCGGGUGAGUGAGGCUGGCUGUGUUGGCCUGGGUGACUUGUGGUUGUAGAGUUGGCCAUCAUUCUGCACUGUUGAUAGCUGUCUGCUCCAGUUUCUG` — result for “RBNS enrichment (R)”: 1.21.
Under “RBNS enrichment (R)”, `AAGGUCUCCCGUGAGUGUCUGUCGGGCACCCAGGUUGUAGGUGUUUGAGAUUCUGUAGGAGGGAGGGAAGGACAGCACCUGUGGCCACCUUCCCUCUUCCGGAUCUGUUU` is recorded as 1.75.
For `AGUGGAAUAUUGUUCACAGGCAGCUCUUUCUGACCCUGGCUCUUGAGUCACAUAAGGAAACCACCUUUGACCUCUCUGACACUUUUGUCUUUAAGCCACGUCUCUGAAAU`, “RBNS enrichment (R)” read 0.198.
`AUAAAUGGUAUUCUAAUAAAAUUGUGUACUAUCCUGUGUGCUUAGUUUUAAGAUCAACCAAUAGAUAUAUAUCCUACAAUUGAUAUAUUGCUUUAUUCACACUUUUAUUG`: “RBNS enrichment (R)” 0.369.
`GCACUUACAAGUGCCUGUCUGGAGGGUUCUCAAGUGUCAGCGCCACACAAGUCAUCCUGCCUGGCUGCAGUUAGCUGUCAUUGUCAUUGAAAAUCUUAGUGUCUCCUGGU`: “RBNS enrichment (R)” 0.256.
